Assay results collected from several papers.
Protocols differ between the studies behind these lines. ± marks the error that the study gave.

COc1cc(CCC[P+](c2ccccc2)(c2ccccc2)c2ccccc2)c(OC)c2c1OCO2.[I-]
TGI (EKVX; SRB): -4.45 log M

Nc1ncc(-c2nc(N3CCOCC3)nc(N3CCOCC3)n2)c(C(F)F)n1
GI50 (KU812; 72 h): 0.52 µM

COc1c(CCC[P+](c2ccccc2)(c2ccccc2)c2ccccc2)cc2c(c1OC)OCO2.[I-]
LC50 (UACC-257; SRB): -4.24 log M

Cc1cc(C(C)(C)c2ccc(O)c(C)c2)ccc1O
G1 phase cells (HepG2 spheroids; Hoechst flow cytometry; 0.01 µM, 96 h): 68.5 ± 15.7%

CN1CCN(C2(CNC3CCN(c4cccc(-c5cc6cc(F)ccc6[nH]5)c4)CC3)CCC2)CC1
CC50 (HOP-92): 5.79 µM

CCN(CC)c1ccc(C=NNC(=O)CSc2nc3ccccc3c(=O)n2Cc2ccc(S(N)(=O)=O)cc2)c(O)c1
CC50 (HOP-62; NCI five-dose screen): > 100 µM

CC(C)N1CCC(NC2CCN(c3cccc(-c4cc5cc(F)ccc5[nH]4)c3)CC2)CC1
CC50 (M14): 6.43 µM

C/C=C(/C)C(=O)O[C@H]1C(C)=C2[C@H]([C@@H]1OC(=O)CCCCCCC)[C@@](C)(OC(C)=O)C[C@H](OC(=O)CCC)[C@@]1(O)[C@H]2OC(=O)[C@@]1(C)O
log2 fold change (HEK293T; RNA-seq, measured: CHAC1 mRNA; 10 µM, 6 h; reference: vehicle): 4.39

Nc1ncnc2c1ncn2[C@@H]1O[C@@H]2COP(=O)(O)O[C@H]3[C@@H](O)[C@H](n4cnc5c(=O)[nH]cnc54)O[C@@H]3COP(=O)(O)O[C@H]2[C@H]1O
fold enrichment (HFF-1; RNA sequencing, measured: Reactome TRAF3-dependent IRF activation; upregulated pathways; reference: mock): 16.2

COc1c(C)c2c(c(O)c1C/C=C(\C)CCC(=O)O)C(=O)OC2
IC50 (HL-60; cell proliferation; blood cancer): 0.257 µM

For quick reference, copied from above:
C/C=C(/C)C(=O)O[C@H]1C(C)=C2[C@H]([C@@H]1OC(=O)CCCCCCC)[C@@](C)(OC(C)=O)C[C@H](OC(=O)CCC)[C@@]1(O)[C@H]2OC(=O)[C@@]1(C)O
log2 fold change (HEK293T; RNA-seq, measured: CHAC1 mRNA; 10 µM, 6 h; reference: vehicle): 4.39
